# Published values of several laboratories.
# Parts stem from different laboratories: compare values within a part only.
# Chain of UniProt Q5XXA6 (whole entry, unmodified, looked up): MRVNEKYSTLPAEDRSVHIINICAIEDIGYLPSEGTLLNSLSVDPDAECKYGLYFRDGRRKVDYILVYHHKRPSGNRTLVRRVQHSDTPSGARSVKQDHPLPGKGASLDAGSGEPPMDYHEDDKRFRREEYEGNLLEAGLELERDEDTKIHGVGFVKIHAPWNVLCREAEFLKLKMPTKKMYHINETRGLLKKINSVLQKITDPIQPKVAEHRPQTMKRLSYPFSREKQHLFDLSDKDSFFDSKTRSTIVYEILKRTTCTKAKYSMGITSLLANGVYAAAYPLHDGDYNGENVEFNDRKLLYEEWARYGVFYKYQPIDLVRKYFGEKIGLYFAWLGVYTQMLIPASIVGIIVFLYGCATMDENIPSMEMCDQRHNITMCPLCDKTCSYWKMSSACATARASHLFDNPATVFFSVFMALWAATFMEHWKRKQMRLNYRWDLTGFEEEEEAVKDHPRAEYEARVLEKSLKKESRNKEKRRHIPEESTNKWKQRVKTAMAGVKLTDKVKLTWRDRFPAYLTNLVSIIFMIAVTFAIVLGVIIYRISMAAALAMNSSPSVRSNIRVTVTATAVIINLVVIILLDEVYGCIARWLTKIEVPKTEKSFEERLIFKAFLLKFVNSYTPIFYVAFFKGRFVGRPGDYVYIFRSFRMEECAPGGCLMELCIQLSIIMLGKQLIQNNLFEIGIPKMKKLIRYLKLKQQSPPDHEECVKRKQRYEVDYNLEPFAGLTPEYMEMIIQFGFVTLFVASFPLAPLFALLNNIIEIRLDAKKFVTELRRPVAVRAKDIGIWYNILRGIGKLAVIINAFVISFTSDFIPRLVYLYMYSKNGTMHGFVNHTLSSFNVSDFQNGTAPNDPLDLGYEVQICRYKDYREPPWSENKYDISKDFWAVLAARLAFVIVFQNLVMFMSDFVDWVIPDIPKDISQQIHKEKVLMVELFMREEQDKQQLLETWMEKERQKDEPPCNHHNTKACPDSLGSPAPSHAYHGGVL

# Sample 1 — host: human; matrix: plasma; route: oral
# SMILES: COc1ccc(-c2c(Nc3ccccn3)[nH]c3c(C4=CCCCC4)c(-c4ccccc4)nn3c2=O)cc1
test,setting,Tmax [h]
,100 mg once daily,24
,200 mg once daily,0
,150 mg once daily,2
LC-MS/MS non-compartmental,"200 mg, day -3 of cycle 0, single dose, median",3
,400 mg once daily,24

# Mixed results
# HLA class I histocompatibility antigen, C alpha chain allele C*04:01: HLA class I histocompatibility antigen, C alpha chain, allele C*04:01 (Homo sapiens, UniProt P10321)
Molecule,tested on,test,system,setting,scale,measurement,value
TEMYIMYAM,"HLA class I histocompatibility antigen, C alpha chain allele C*04:01",peptide-MHC binding,peptide,concentration not given,,binding,inactive
Cc1ncc(-c2cc3cc(-c4c(C)ccc(O)c4C)cnc3[nH]2)cn1,HCC1569,"in-cell western, item: CDK1 phospho-Thr14",,,,IC50,> 10 µM
WQLTSIWPI,"HLA class I histocompatibility antigen, C alpha chain allele C*04:01",peptide-MHC binding,peptide,concentration not given,,binding,inactive
C=CCc1ccc(O)c(-c2ccc(O)c(CC=C)c2)c1,"Anoctamin-1 (ANO1, Homo sapiens, UniProt Q5XXA6, del476-501)","chloride current, inhibitor, whole-cell voltage clamp",,"3 µM, wild type, with: 300 nM Ca2+",reference: maximum,remaining current,~70%
Cn1cncc1[C@](O)(COc1ccc(C#N)cc1-c1ccc(OC(F)(F)F)cc1)c1ccc(C#N)cc1,"Tyrosine-protein kinase SYK (SYK, Homo sapiens, UniProt P43405)","cell-free assay, competition with immobilised ligand",,1 µM,,remaining binding,95%

# Repeated from above (mixed results):
Molecule,tested on,test,system,setting,scale,measurement,value
WQLTSIWPI,"HLA class I histocompatibility antigen, C alpha chain allele C*04:01",peptide-MHC binding,peptide,concentration not given,,binding,inactive
